# Results collected from several papers.
# Compare with care: the assays were run in different laboratories. Several values in a cell are separate wells, animals, samples, runs or records. ± marks the error that the study gave.
SMILES,test,test system,conditions,how to read,quantity,value
C=CC(=O)NC1CCN(c2ncc3ncnc(Nc4ccc(Oc5ccc6c(c5)ncn6C)c(C)c4)c3n2)CC1,,healthy male humans,"oral, dose not given, with: carbamazepine",baseline: with over without carbamazepine,AUC(0-tz) ratio,36.5%
CC(C)(C(=O)N1CCOc2c(C#N)cncc2C1)C(F)F,refers to: Investigations,human,"oral, 40 mg, CSF pharmacokinetic cohort",,subjects with adverse event,0%
NC1(C(=O)N[C@@H](CCO)c2ccc(Cl)cc2)CCN(c2nc[nH]c3nccc2-3)CC1,,metastatic CRPC patients,"400 mg b.i.d., any grade, treatment-related, with: enzalutamide 160 mg daily",,incidence of blood creatinine increased,14.3%
Cc1cn(C(=O)c2c(-c3c(Cl)cc(Cl)cc3Cl)noc2C(C)(C)F)c2cccc(/C=C/C(=O)O)c12,,human patients,"125 mg bid, cycle 1 day 1",,AUC(0-8h),21600 ng·h/mL
CCn1c(=O)c(-c2cc(NC(=O)Nc3ccccc3)c(F)cc2Br)cc2cnc(NC)cc21,refers to: gastrointestinal disorders,"human, mild hepatic impairment","oral, 50 mg single dose",,participants with drug-related TEAE,37.5%
CCc1cc2ncc(CN3CCN(c4ccc(C(=O)NC)nc4)CC3)cc2[nH]c1=O,,"female rat, blood","oral, 50 mg/kg/day, 4 weeks",baseline: vehicle control,Lymphocytes count ratio,0.67
CNC(=O)c1ccc(-c2cnc3ncc(Cc4ccc5ncccc5c4)n3n2)cc1F,"refers to: Pruritus, all grades",gastric cancer patients,"oral, 600 mg twice daily, expansion cohort, any causality",,patients with adverse event,11%
CN(CCC#N)C(=O)c1ccc(C2CCCCC2)cc1,liver microsome stability,human liver microsomes,"1 µM, without NADPH",,hepatic clearance,3.9 mL/min/kg
CCCCC1=NC2(CCCC2)C(=O)N1Cc1ccc(-c2ccccc2S(=O)(=O)Nc2noc(C)c2C)c(COCC)c1,,"healthy adult volunteers, plasma","oral, 400 mg, 14 days repeated dosing, fasted, crushed tablet",,Cmax,6470 ng/mL
CN[C@H](CC(C)C)C(=O)N[C@H]1C(=O)N[C@@H](CC(N)=O)C(=O)N[C@H]2C(=O)N[C@H]3C(=O)N[C@H](C(=O)N[C@H](C(=O)O)c4cc(O)cc(O)c4-c4cc3ccc4O)[C@H](O)c3ccc(c(Cl)c3)Oc3cc2cc(c3O[C@@H]2O[C@H](CO)[C@@H](O)[C@H](O)[C@H]2O[C@H]2C[C@](C)(N)[C@H](O)[C@H](C)O2)Oc2ccc(cc2Cl)[C@H]1O,,poloxamer 407 hydrogel,"pH 7.4, 37 °C, co-formulated with antibiotics",,release half-life,3 h
CC(=O)O[C@H]1C(=O)[C@@]2(C)[C@H]([C@H](OC(=O)c3ccccc3)[C@]3(O)C[C@H](OC(=O)[C@H](O)[C@@H](NC(=O)c4ccccc4)c4ccccc4)C(C)=C1C3(C)C)[C@]1(OC(C)=O)CO[C@@H]1C[C@@H]2O,refers to: Anaemia,patients with advanced solid tumours,"intravenous, dose not given, grade 1 and 2, possibly related to drug",,adverse event incidence,33%
CN1CCN(C(=O)c2ccc(C3CCCCC3)cc2)CC1,liver microsome stability,mouse liver microsomes,1 µM,,hepatic clearance,86 mL/min/kg
CCc1nc(C(N)=O)c(Nc2ccc(N3CCC(N4CCN(C)CC4)CC3)c(OC)c2)nc1NC1CCOCC1,,"Japanese patients, plasma","oral, 200 mg, cycle 1 day 28, multiple doses, mean",,Cmax,1020 ng/mL
CC(C(=O)Nc1ccc(C2CCCCC2)cc1)n1cncn1 (centres unmarked),,cryopreserved rat hepatocytes,1 µM,,hepatic clearance,39 mL/min/kg
C=CC(=O)Nc1cc(Nc2nccc(-c3cn(C)c4ccccc34)n2)c(OC)cc1N(C)CCN(C)C,storage stability,human plasma,"5 h, on ice, low QC level",,recovery,95.6%
Cc1ccc(Sc2ccccc2N2CCNCC2)c(C)c1,refers to: Nausea,healthy adult men,"oral, 40 mg single dose, 10 day",,participants with TEAE,0%
NC(=O)N1c2ccccc2CC(O)c2ccccc21 (centres unmarked),population PK modelling,"human patients, plasma","dose not given, weight-scaled, estimated exponents",,volume of distribution,40 L
N#CCC(=O)Nc1ccc([C@H]2[C@@H](F)[C@@H](F)C[C@@H](F)[C@H]2F)cc1,hepatocyte stability,cryopreserved human hepatocytes,1 µM,,hepatic clearance,10 mL/min/kg
Cc1cc(-c2nccc3c2ccn3CC(=O)Nc2ccc(-c3cnccn3)cn2)ccn1,,human,"SAD part, single 40 mg dose",,subjects with Nausea TEAEs,16.7%
Cc1ccc(C(=O)N(CCCN)C(c2nc3snc(C)c3c(=O)n2Cc2ccccc2)C(C)C)cc1 (centres unmarked),mucosal inflammation grade ≥3 (CTCAE),human patients,"intravenous, 16 mg/day",,patients with adverse event,0%
Cc1nc2ccc(F)cc2n1-c1nc(N)c(F)c(Nc2ccc(C(F)(F)F)cc2)n1,,"human patients, plasma","oral, 200 mg twice weekly, cycles 1 and 2 pooled",,dose-normalized AUC(0-inf),82.6 ng·h/mL/mg
CCc1c(-c2ccccc2)c(-c2ccccc2)nn1-c1ccccc1-c1cccc(OCC(=O)O)c1,,"Sprague-Dawley rat, plasma","oral, 10 mg/kg, 8 h",,concentration,128 ng/mL and 190 ng/mL
O=C(Nc1nc2cccc(-c3ccc(CN4CCS(=O)(=O)CC4)cc3)n2n1)C1CC1,refers to: headache,human rheumatoid arthritis patients,"oral, 75 mg once daily, 4 weeks, regardless of relatedness",,treatment-emergent adverse events,4.5%
CC(=O)O[C@@]12CO[C@@H]1C[C@H](O)[C@@]1(C)C(=O)[C@H](O)C3=C(C)[C@@H](OC(=O)[C@H](O)[C@@H](NC(=O)OC(C)(C)C)c4ccccc4)C[C@@](O)([C@@H](OC(=O)c4ccccc4)[C@H]21)C3(C)C,dialysis,PBS with 10% serum,"2 h, pH 7.4, 37 °C",,release,93.5%
C[C@@H](N)C1CCN(S(=O)(=O)c2cccc3cnccc23)CC1,,healthy volunteers,"25 mg, fasted",,participants with serious TEAEs,0%
CCOCc1nc(O)c(-c2nnc(Cc3ccc(Cl)cn3)o2)c(O)c1-c1c(OC)cccc1OC,,"rat, post surgery, plasma","oral, 0.06 mg/kg once daily, day 6 post surgery",,trough concentration,3 nM
CC(=O)N(C)C1CCN(c2cc(F)cc(NC(=O)c3cc4c(F)ccc(C)c4[nH]3)c2)C1 (centres unmarked),,"CD1 mouse, plasma","oral, 50 mg/kg, 4 h",,plasma concentration,21.1 ng/mL
C=C1C[C@@H]2[C@H](CC[C@]3(C)C(=O)CC[C@@H]23)[C@@]2(C)C=CC(=O)C=C12,,"postmenopausal women, serum","oral, 25 mg daily, 1 year, mean of detectable specimens",,serum concentration,25 nM
CCN1/C(=C/C(C)=O)Sc2ccc(F)cc21,,cynomolgus monkey,"oral, 100 mg/kg, 24 h post-dose",baseline: pre-dose,heart rate change,110 ± 12.3%
OC[C@H]1O[C@@H](c2ccc(Cl)c(Cc3ccc(O[C@H]4CCOC4)cc3)c2)[C@H](O)[C@@H](O)[C@@H]1O,,"Japanese type 1 diabetes patients, blood","2.5 mg, day 28",baseline: baseline,change in Calcium,-0.1 mg/dL
Cc1ccc(CCC(=O)Nc2nnc(S(N)(=O)=O)s2)cc1,,"BALB/c mouse, male, plasma","oral, 20 mg/kg, 4 h",,unbound plasma concentration,0.043 ng/mL
N#Cc1ccc2c(c1)[C@H]1CCCN(C(=O)c3ccc4[nH]cnc4c3)[C@H]1C2,,"human, female","40 mg, day 15",,androstenedione level,8.6 nmol/L
COc1ncc(-c2nc3c(n2C(C)C)[C@H](c2ccc(Cl)cc2)N(c2cc(Cl)cn(C)c2=O)C3=O)c(OC)n1,LC-MS/MS,"human, plasma","oral, 1 mg, cycle 1 day 8, low-dose arm",,Cmax,15.5 ng/mL
C=C(NC(=O)c1nccc(OC)c1O)C(=O)O[C@@H](C)[C@H](OC(=O)C(C)C)[C@@H](Cc1ccccc1)C(=O)O,soil adsorption,clay loam soil,"pH 6.8, organic carbon 0.5 %",,KFoc,19700 mL/g
C=CCn1c(=O)c2cnc(Nc3ccc(N4CCN(C)CC4)cc3)nc2n1-c1cccc(C(C)(C)O)n1,,human patients,"oral, 200 mg once daily, day 17, cycle 1, with: durvalumab 1500 mg iv",,AUC(0-10 h),4.35 µM·h
O=C(NCCc1cccnc1)c1ccc([C@H]2[C@@H](F)[C@@H](F)C[C@@H](F)[C@H]2F)cc1,liver microsome stability,dog liver microsomes,1 µM,,hepatic clearance,23 mL/min/kg
Cn1cc(-c2cn3nccc3c(-c3cnn([C@]4(CC#N)C[C@@H](C#N)C4)c3)n2)cn1,,healthy human fed,"200 mg twice daily, day 10",,Vz/F,3220 L
COc1cc(C(=O)N2CCC3(CC2)CC(=O)c2c(cnn2C(C)C)C3)cc(-c2ccc(C(=O)O)cc2)n1,refers to: HDL cholesterol,"human, fasting serum","1 mg every 12 h, day 13, adjusted geometric mean",baseline: baseline,percentage change from baseline,-3.5%
Cc1ccc([C@@H]2O[C@H](CO)[C@@H](O)[C@H](O)[C@H]2O)cc1Cc1ccc(-c2ccc(F)cc2)s1,,Japanese type 2 diabetes patients,"400 mg, day 4, 24 h urine collection",baseline: baseline,urinary calcium excretion change,-23.2 mg
Cn1cc(Nc2nccc(-c3ccc4c(c3)CN(C3COC3)CC[C@H]4NC(=O)c3cn(C(C)(C)C)nn3)n2)cn1,,"human, whole blood","50 mg twice daily, day 14",baseline: pre-dose baseline,CD3+ T cell count change,1.43%
CSCC[C@H](N)C(=O)N[C@@H](CC(C)C)C(=O)N[C@@H](CCCNC(=N)N)C(=O)N[C@@H](Cc1c[nH]c2ccccc12)C(=O)N[C@@H](CO)C(=O)N[C@@H](CCCNC(=N)N)C(=O)N[C@@H](CCCCN)C(=O)N[C@@H](CC(C)C)C(=O)N1CCC[C@H]1C(=O)N[C@@H](CS)C(=O)N[C@H](C(=O)N[C@@H](CO)C(N)=O)C(C)C,"12G5 competition, SUP-T1 cells",human plasma,"20 µM, 2 h, 37 °C",,remaining activity,8 ± 2%
CO[C@H]1C[C@@H]2CC[C@@H](C)[C@@](O)(O2)C(=O)C(=O)N2CCCC[C@H]2C(=O)O[C@H]([C@H](C)C[C@@H]2CC[C@@H](OC(=O)NCCOCCOCCOCCOCCOCCOCCOCCOCCC(=O)N3CCc4cc(Cn5nc(-c6ccc7oc(N)nc7c6)c6c(N)ncnc65)ccc4C3)[C@H](OC)C2)C[C@@H](O)[C@H](C)/C=C(\C)[C@@H](O)[C@@H](OC)C(=O)[C@H](C)C[C@H](C)/C=C/C=C/C=C/1C,,"human, plasma","intravenous, 6 mg, cycle 1 day 15, arithmetic mean",,Tmax,0.9 h
COCCN(C)C(=O)c1ccc([C@H]2[C@@H](F)[C@@H](F)C[C@@H](F)[C@H]2F)cc1,hepatocyte stability,cryopreserved mouse hepatocytes,1 µM,,hepatic clearance,64 mL/min/kg
COC(=O)N[C@@H](C)CNc1nccc(-c2cn(C(C)C)nc2-c2cc(Cl)cc(NS(C)(=O)=O)c2F)n1,,"human, plasma","oral, single dose, with: posaconazole",baseline: compound alone,AUCinf geometric mean ratio,283%
CC(C(=O)NCC(=O)NCC(CNC(=O)CNC(=O)C(C)N1CCN(CC(=O)[O-])CCN(CC(=O)[O-])CCN(CC(=O)[O-])CC1)(CNC(=O)CNC(=O)C(C)N1CCN(CC(=O)[O-])CCN(CC(=O)[O-])CCN(CC(=O)[O-])CC1)CNC(=O)CNC(=O)C(C)N1CCN(CC(=O)[O-])CCN(CC(=O)[O-])CCN(CC(=O)[O-])CC1)N1CCN(CC(=O)[O-])CCN(CC(=O)[O-])CCN(CC(=O)[O-])CC1.[Gd+3].[Gd+3].[Gd+3].[Gd+3] (centres unmarked),LA-ICP-MS,"rat, femur cortical mineralized bone","0.6 mmol Gd/kg, 1 week",,Gd concentration,< 1 nmol Gd/g
O=C(Nc1cnccc1Cl)N1CCN(Cc2ccc3c(c2)OC(F)(F)O3)CC1,multiple ascending dose,young women,"100 mg, treatment-emergent adverse events",,hepatic enzyme increased,16.7%
CC(C)(c1ccc(O)cc1)c1ccc(O)cc1,,whole cow milk,20 nM nominal,,dose fraction in milk fat,39.6%
O=C(O)CCCOc1ccc([18F])cc1-c1cc(-c2ccccc2C(F)(F)F)n(-c2ccccc2)n1,18F biodistribution,"male ddY mouse, whole blood","intravenous, 2.1 MBq, 1 min",,blood radioactivity,0.32 ± 0.12 SUV
CN(Cc1cccnc1)C(=O)c1ccc(C2CCCCC2)cc1,hepatocyte stability,cryopreserved mouse hepatocytes,1 µM,,hepatic clearance,72 mL/min/kg
Cc1cc(C)c(CNC(=O)c2cc(Cl)c3c(c2C)O[C@@](C)([C@H]2CC[C@H](N(C)C)CC2)O3)c(=O)[nH]1,ultracentrifugation,0.1% human alpha-1-acid glycoprotein,"5000 ng/mL, 160 min",,fu,0.233
O=C(O)CCC(=O)O.[2H]C([2H])([2H])Oc1cc(C)c2[nH]ccc2c1CN1CC[C@@H](C2CC2)C[C@H]1c1ccc(C(=O)O)cc1,multiple ascending dose,healthy Chinese subjects,200 mg once daily,,subjects with reduced potassium TEAE,0%
CNCc1ccc(-c2[nH]c3cc(F)cc4c3c2CCNC4=O)cc1,,human patients,"oral, 600 mg twice daily, grade 1",,dysgeusia incidence,11.5%
O=C(N[C@H](Cc1c[nH]c2ccccc12)C(=O)Nc1ccncc1)c1ccc(-c2ccc(F)c(Cl)c2)cc1F,,"Swiss Webster mouse, female, intestine","oral, 50 mg/kg, 2 h, 20% HPβCD vehicle",,concentration,90 nM
CCOc1c([C@H](C)n2nc(C)c3c(N)ncnc32)cc(Cl)c(F)c1[C@@H]1CNC(=O)C1,,human B-cell malignancy patients,"oral, all doses, baseline below threshold",,observations with HR >100 bpm,0.9%
CC(C)c1nc(N(C)S(C)(=O)=O)nc(-c2ccc(F)cc2)c1/C=C/[C@@H](O)C[C@@H](O)CC(=O)O,refers to: infections and infestations,healthy men,"oral, dose not given, 8 days, treatment-emergent, crossover trial",,subjects with adverse event,4.5%
CC(=O)N1CC(C(=O)Nc2ccc(C3CCCCC3)cc2)C1,liver microsome stability,cynomolgus liver microsomes,1 µM,,hepatic clearance,23 mL/min/kg
COc1ccc2nccc(N3CCc4c(cc(Cn5ccnc5)cc4-c4cn(C)nc4C(F)(F)F)C3=O)c2c1,,"CD-1 mouse, male, plasma","oral, 50 mg/kg",,AUC extrapolated,0.1%
N#Cc1ccc2c(c1)[C@H]1CCCN(C(=O)c3ccc4[nH]cnc4c3)[C@H]1C2,,"human, plasma","oral, 80 mg once daily, steady state",,Vz/F steady state,457 L
Cc1c(-c2ccc(N3CCc4cccc(C(=O)Nc5nc6ccccc6s5)c4C3)nc2C(=O)O)cnn1CC12CC3(C)CC(C)(C1)CC(OCCNCC[C@H](O)CO)(C3)C2,,"beagle dog, male, anaesthetised","intravenous infusion, 0.3 mg/kg/min, 15 min",baseline: vehicle,mean arterial pressure change,-5%
